Experimental data collected from several papers.
Numbered parts are unrelated; each lists some results of a single study. Substitutions count along the parent as printed.
Sequence of UniProt P62837 (whole entry, looked up): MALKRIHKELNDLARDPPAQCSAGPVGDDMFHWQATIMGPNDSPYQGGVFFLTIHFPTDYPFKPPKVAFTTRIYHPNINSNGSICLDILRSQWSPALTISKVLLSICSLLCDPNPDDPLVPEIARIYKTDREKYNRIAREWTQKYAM

Block 1 — target: CREB3, bZIP domain (human); method: DHFR protein complementation; sample: yeast; relative to: wild-type JUN-FOS pair; direction: higher = stronger binding; endpoint: binding fitness
Setting: single substitutions, most at no-binding floor
Starting sequence: JUN, bZIP domain (human); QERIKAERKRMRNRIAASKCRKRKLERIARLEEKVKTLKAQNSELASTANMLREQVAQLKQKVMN; partner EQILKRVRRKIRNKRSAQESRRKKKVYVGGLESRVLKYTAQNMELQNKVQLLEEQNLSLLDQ
E32T: -1.3 natural log
L59G: -1.38 natural log
L59R: -1.4 natural log
T37A: -1.48 natural log
N42G: -1.5 natural log
E33C: -1.41 natural log
K39Q: -1.54 natural log
V56F: -1.53 natural log

Block 2 — method: DHFR PCA, deep sequencing; sample: yeast; added: (+)-ABA 0 µM; relative to: wild-type fitted maximum; direction: higher = stronger binding; endpoint: relative binding score
Target: ABI1, truncated, D143A, DHFR fusion (Arabidopsis thaliana)
Setting: methotrexate growth selection, single substitutions
Starting sequence: PYL1, truncated, DHFR fusion (Arabidopsis thaliana); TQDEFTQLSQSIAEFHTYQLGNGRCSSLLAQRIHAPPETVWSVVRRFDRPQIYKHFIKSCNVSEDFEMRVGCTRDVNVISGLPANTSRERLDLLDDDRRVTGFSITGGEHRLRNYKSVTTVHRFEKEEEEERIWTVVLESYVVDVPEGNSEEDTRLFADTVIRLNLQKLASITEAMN; partner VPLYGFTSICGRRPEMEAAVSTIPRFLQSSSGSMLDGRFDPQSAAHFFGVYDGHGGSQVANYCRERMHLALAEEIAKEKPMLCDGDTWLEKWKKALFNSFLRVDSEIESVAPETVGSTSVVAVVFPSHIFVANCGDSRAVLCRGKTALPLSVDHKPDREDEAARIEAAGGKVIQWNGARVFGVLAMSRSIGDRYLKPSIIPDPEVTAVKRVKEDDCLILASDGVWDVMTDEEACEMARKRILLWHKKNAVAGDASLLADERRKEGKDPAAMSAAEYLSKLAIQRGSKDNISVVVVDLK
R113I: 17.7%
Q31S: -2.5%
E131Y: 11.4%
T119V: -8.27%
R74I: 1.96%
F124M: 52.3%
E89V: 2.13%
D3L: 27.6%

Mixed results
QLQDIKEQTMCPVCLDRLKNMIFLCGHGTCQLCGDRMSECPICRKAIERRILLY (MIB1 RING domain (UniProt Q86YT6))
lacZ reporter activity (UBE2D2 UBC core domain (UniProt P62837); yeast two-hybrid; yeast; mostly zero background; relative to: not given, higher = stronger interaction): 10200

EGIPGLYTY
binding (HLA class I histocompatibility antigen, A alpha chain, allele A*26:03 (Homo sapiens, UniProt P04439); peptide-MHC binding; peptide; concentration not given): inactive

Repeated from above (block 2):
F124M: 52.3%
E89V: 2.13%
D3L: 27.6%
